Results from different studies.
Protocols differ between the studies behind these lines. ± gives the spread as reported.

`CCCC[C@H](NC(=O)CNC(=O)CNC(=O)c1ccc(NN)nc1)C(=O)N[C@H]1CC(=O)NCCCC[C@@H](C(N)=O)NC(=O)[C@H](Cc2c[nH]c3ccccc23)NC(=O)[C@H](CCCNC(=N)N)NC(=O)[C@@H](Cc2ccccc2)NC(=O)[C@H](Cc2c[nH]cn2)NC1=O` [technetium-99m labelled]: “tissue uptake ratio” 55.1 (C57 mouse, B16/F1 melanoma-bearing; intravenous, 4 h; relative to: tumour over lung).
Under “tumour to tissue ratio”, `N=C(N)NCCC[C@@H]1NC(=O)[C@H](CCCCNC(=O)CCOCCOCCOCCOCCNC(=O)CC[C@H](NC(=O)CCOCCOCCOCCOCCNC(=O)CC[C@H](NC(=O)CN2CCN(CC(=O)O)CCN(CC(=O)O)CCN(CC(=O)O)CC2)C(=O)NCCOCCOCCOCCOCCC(=O)N[C@@H](CCC(=O)NCCOCCOCCOCCOCCC(=O)NCCCC[C@@H]2NC(=O)[C@@H](Cc3ccccc3)NC(=O)[C@H](CC(=O)O)NC(=O)CNC(=O)[C@H](CCCNC(=N)N)NC2=O)C(=O)NCCOCCOCCOCCOCCC(=O)NCCCC[C@@H]2NC(=O)[C@@H](Cc3ccccc3)NC(=O)[C@H](CC(=O)O)NC(=O)CNC(=O)[C@H](CCCNC(=N)N)NC2=O)C(=O)NCCOCCOCCOCCOCCC(=O)NCCCC[C@@H]2NC(=O)[C@@H](Cc3ccccc3)NC(=O)[C@H](CC(=O)O)NC(=O)CNC(=O)[C@H](CCCNC(=N)N)NC2=O)NC(=O)[C@@H](Cc2ccccc2)NC(=O)[C@H](CC(=O)O)NC(=O)CNC1=O` [indium-111 labelled] is recorded as 3.04 ± 1.03 (athymic nude mice, female, U-87 MG glioma xenograft, tumour and liver; intravenous, 4 h; relative to: tumour over liver).
`CCCC[C@H](NC(=O)CCCCCCCNC(=O)c1ccc(NN)nc1)C(=O)N[C@H]1CC(=O)NCCCC[C@@H](C(N)=O)NC(=O)[C@H](Cc2c[nH]c3ccccc23)NC(=O)[C@H](CCCNC(=N)N)NC(=O)[C@@H](Cc2ccccc2)NC(=O)[C@H](Cc2c[nH]cn2)NC1=O` [technetium-99m labelled] — result for “renal uptake reduction”: 33% (B16/F1 melanoma-bearing C57 mice, kidney; dose not given, 2 h post-injection, with: L-lysine 12 mg).
With `CC(C)C[C@H](NC(=O)[C@H](Cc1ccc(O)cc1)NC(=O)[C@@H](CCCNC(=N)N)NC(=O)[C@@H](CO)NC(=O)[C@H](Cc1ccccc1)NC(=O)[C@H](CC1CCCCC1)NC(=O)[C@H](CC(=O)O)NC(=O)[C@H](CCC(=O)O)NC(=O)[C@H](CCC(=O)O)NC(=O)[C@H](CCC(=O)O)NC(=O)[C@H](CCC(=O)O)NC(=O)CCc1ccc(N(c2ccc(CCC(=O)O)cc2)c2ccc(-c3c4c(c(-c5ccc(N(c6ccc(CCC(=O)O)cc6)c6ccc(CCC(=O)O)cc6)cc5)c5nsnc35)N=S=N4)cc2)cc1)C(=O)N[C@@H](Cc1c[nH]c2ccccc12)C(=O)N[C@@H](CO)C(N)=O` the signal intensity was 0.08 (nude mouse, heart; dose not given, ex vivo, unblocked, unit not given; relative to: liver).
`N=C(N)NCCC[C@@H]1NC(=O)[C@H](CCCCNC(=O)CCOCCOCCOCCOCCNC(=O)CC[C@H](NC(=O)CCOCCOCCOCCOCCNC(=O)[C@H](CCCCNC(=O)c2ccc(NN)nc2)NC(=O)c2ccc(NN)nc2)C(=O)NCCOCCOCCOCCOCCC(=O)NCCCC[C@@H]2NC(=O)[C@@H](Cc3ccccc3)NC(=O)[C@H](CC(=O)O)NC(=O)CNC(=O)[C@H](CCCNC(=N)N)NC2=O)NC(=O)[C@@H](Cc2ccccc2)NC(=O)[C@H](CC(=O)O)NC(=O)CNC1=O` [technetium-99m labelled] has a tissue ratio of 3.3 ± 0.14 (female athymic nude mice; intravenous, 1 h, U-87 MG glioma xenograft; relative to: tumour over lung).
For `N=C(N)NCCC[C@@H]1NC(=O)[C@H](CCCCNC(=O)CC[C@H](NC(=O)CCOCCOCCOCCOCCNC(=O)CN2CCN(CC(=O)O)CCN(CC(=O)O)CCN(CC(=O)O)CC2)C(=O)NCCCC[C@@H]2NC(=O)[C@@H](Cc3ccccc3)NC(=O)[C@H](CC(=O)O)NC(=O)CNC(=O)[C@H](CCCNC(=N)N)NC2=O)NC(=O)[C@@H](Cc2ccccc2)NC(=O)[C@H](CC(=O)O)NC(=O)CNC1=O` [indium-111 labelled], the tissue uptake was 3.08 ± 0.6 %ID/g (athymic nude mice, female, U-87 MG glioma xenograft, U-87 MG tumour; intravenous, 3 µCi, 24 h).
For `CSCC[C@H](NC(=O)[C@H](CC(C)C)NC(=O)[C@H](Cc1c[nH]cn1)NC(=O)CNC(=O)[C@@H](NC(=O)[C@H](C)NC(=O)[C@H](Cc1c[nH]c2ccccc12)NC(=O)[C@H](CCC(N)=O)NC(=O)CCCCCNC(=O)CNC(=O)CNC(=O)CNC(=O)CSC(C)=O)C(C)C)C(N)=O` [technetium-99m labelled], the tissue uptake was 1.02 ± 0.21 %ID/g (nude mouse, PC-3 xenograft, lung; 90 min, with: excess unlabelled conjugate).
With `N=C(N)NCCC[C@@H]1NC(=O)[C@H](CCCCNC(=O)CNC(=O)CNC(=O)CNC(=O)CC[C@H](NC(=O)CCOCCOCCOCCOCCNC(=O)CC[C@H](NC(=O)CN2CCN(CC(=O)O)CCN(CC(=O)O)CCN(CC(=O)O)CC2)C(=O)NCCOCCOCCOCCOCCC(=O)N[C@@H](CCC(=O)NCC(=O)NCC(=O)NCC(=O)NCCCC[C@@H]2NC(=O)[C@@H](Cc3ccccc3)NC(=O)[C@H](CC(=O)O)NC(=O)CNC(=O)[C@H](CCCNC(=N)N)NC2=O)C(=O)NCC(=O)NCC(=O)NCC(=O)NCCCC[C@@H]2NC(=O)[C@@H](Cc3ccccc3)NC(=O)[C@H](CC(=O)O)NC(=O)CNC(=O)[C@H](CCCNC(=N)N)NC2=O)C(=O)NCC(=O)NCC(=O)NCC(=O)NCCCC[C@@H]2NC(=O)[C@@H](Cc3ccccc3)NC(=O)[C@H](CC(=O)O)NC(=O)CNC(=O)[C@H](CCCNC(=N)N)NC2=O)NC(=O)[C@@H](Cc2ccccc2)NC(=O)[C@H](CC(=O)O)NC(=O)CNC1=O` [indium-111 labelled] the tissue uptake was 0.84 ± 0.1 %ID/g (athymic nude mice, female, U-87 MG glioma xenograft, bone; intravenous, 3 µCi, 24 h).
`Cc1cc(-c2ccc(NC(=O)[C@H](CCCCNC(=O)CCOCCOCCC(=O)N[C@H](Cc3ccccc3)C(=O)N[C@H]3CSSC[C@@H](C(=O)N[C@H](C(=O)O)[C@@H](C)O)NC(=O)[C@H]([C@@H](C)O)NC(=O)[C@H](CCCCN)NC(=O)[C@@H](Cc4c[nH]c5ccccc45)NC(=O)[C@H](Cc4ccc(O)cc4)NC3=O)NC(=O)CN3CCN(CC(=O)O)CCN(CC(=O)O)CCN(CC(=O)O)CC3)c(C)c2)ccc1N=Nc1ccc2c(S(=O)(=O)O)cc(S(=O)(=O)O)c(N)c2c1O` [lutetium-177 labelled]: “patients with toxicity” 83% (refers to: subacute haematologic toxicity; patients with metastatic neuroendocrine tumours; dose not given, two cycles).

For quick reference, copied from above:
For `CSCC[C@H](NC(=O)[C@H](CC(C)C)NC(=O)[C@H](Cc1c[nH]cn1)NC(=O)CNC(=O)[C@@H](NC(=O)[C@H](C)NC(=O)[C@H](Cc1c[nH]c2ccccc12)NC(=O)[C@H](CCC(N)=O)NC(=O)CCCCCNC(=O)CNC(=O)CNC(=O)CNC(=O)CSC(C)=O)C(C)C)C(N)=O` [technetium-99m labelled], the tissue uptake was 1.02 ± 0.21 %ID/g (nude mouse, PC-3 xenograft, lung; 90 min, with: excess unlabelled conjugate).
